Experimental data from different studies.
Numbered parts are unrelated; each lists some results of a single study.

Series 1
Target: Centromere-binding protein 1, full length, His-tagged (CBF1, Saccharomyces cerevisiae, UniProt P17106, residues 1-351)
Sequence of UniProt P17106 (whole entry, looked up): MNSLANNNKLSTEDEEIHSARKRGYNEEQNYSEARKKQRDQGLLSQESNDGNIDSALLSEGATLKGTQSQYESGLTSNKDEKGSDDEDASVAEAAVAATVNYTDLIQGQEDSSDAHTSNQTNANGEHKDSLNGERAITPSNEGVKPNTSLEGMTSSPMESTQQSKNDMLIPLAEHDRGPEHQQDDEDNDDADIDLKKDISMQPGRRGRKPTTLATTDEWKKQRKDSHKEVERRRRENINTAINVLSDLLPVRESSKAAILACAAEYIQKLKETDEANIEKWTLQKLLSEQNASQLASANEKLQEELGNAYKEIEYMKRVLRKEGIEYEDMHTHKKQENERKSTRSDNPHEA
Technique: competition protein-binding microarray
Molecule type: double-stranded DNA, one strand shown
Medium: in vitro
Tested at: 2 µM
Setting: whole 60-bp probe, lowest competitor level
Together with: Pho4 competitor, 0.05 µM
Direction: higher = stronger binding
All sequences stand within: … GTCTTGATTCGCTTGACGCTGCTG
Oligonucleotide | fluorescence intensity [a.u.]
GTCTGAGTAAGTCCGCACGTCCAACGTCTTGAGTCG | 66.5
ATCGAATTCCTTTGTAACGTGCAAAGCATTTTATAG | 186
GCTAATGTAATATAATCCGTGATGGTTTAATGGTCA | 113
TGTTTGGGTTTTTAGCACGTCGTACACTGGCCTTTA | 78.7
CTTTCCCGATCTTTTCACGTGTTGTTAGCACATTTG | 823
AAAGGCCATCCATACTACGTGGGTACTCAATACCAT | 62.4
GGCAAATATAACGGCCACGTGCCGAGGGGTTTCTCT | 1650
GCCGCAAAATCCTCCATCGTGCTTTATATTTCGTCT | 71.7
AAAGCGGTAATTTGCGTAGTGGGTGCAGATATCTAT | 84.4
TCATGTTAATTGTAACGGCTATATCTACTGGGTAGA | 101
CTAACGAAGGTTTGCACAGTGGGTGACAAGCCAAGT | 63.3
GAGTGCTCAGAAAACCCCGTGGATTACCCAACGGTC | 71.7
GGGATCGCTATACTCCACGTGAAGTGACGCCTTGGA | 366
CAGATGAACTTCTTGAACGTGGACGCCGTATGCCAT | 61.2
CTTCTGTAAATTTGCAAAGTGGGTGGACGCGCCCCG | 97.3
CGGGGTTAAGTTTTTCACGTGCCGTGCTTTCAGCAG | 833
CATACCCAACCTTGTCACCCCACTTAAGATATTTGT | 83.2
CTCTACTATGGCATCCACATGAAAACCAGTCTCAGA | 76.7
CTCTGCCCTGCTTAGCACGTAGAAGGTCTCCGGCTG | 55.4
CTTTCAAATGTGGGTGACGTGCTAACTTGGGGCTTG | 76.4
GAGCGAGACTGCCAACACGTGCACACTCCGTCCAGA | 1240
ATGAATACACTTTGAAACGTGACGGTGCCATCGATG | 382
CGGGGTTAAGTTTGCTGCGTGGGTGGCTTGCAGCAG | 71.5

Series 2
Target: RNA binding protein fox-1 homolog 2, RRM domain, GST-SBP tag (RBFOX2, Homo sapiens, UniProt O43251-10, residues 100-194)
Technique: RNA Bind-n-Seq
Molecule type: RNA
Medium: in vitro
Tested at: 365 nM
Setting: natural RNA segment, single round, ends assumed
Relative to: no-protein control
Direction: higher = stronger binding
All sequences stand within: GGGAGUUCUACAGUCCGACGAUC … UGGAAUUCUCGGGUGCCAA
Construct (chain): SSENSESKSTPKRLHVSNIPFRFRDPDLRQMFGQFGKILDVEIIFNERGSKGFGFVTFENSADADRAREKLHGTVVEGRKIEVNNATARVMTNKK
Oligonucleotide | RBNS enrichment (R)
AGUACUGUCCUAACCCUGGCUUUUCAGUUAAUGUUUCCAUCUGUGAAGCUUGGAAACACAGCUGGGAAGUUUGUAUUCAUUUACUUAGUAGAUAUGUGCAGAGCUCCUUG | 0.219
GUUCAUGUUGGUAUAGAAAUGUCUUUUAAAUCCUAUUGUUGAGCAAGAUCUGCUCUCUGUCUAUGGUAUUACACAGGGAAAGCUGUGACUGCAGGAUCAGUCUCAUUCUU | 0.426
GGUUAAUGGUAACUUGUUGUUCUCCUGAUCUAACUGAGUACCACCUUUGGUGUUAAGUGUCAUUGUUUAGUUUACCCUCUGUUCUCUAUGUUGUCCUAACAAGCCAACCC | 0.303
CUGCCGCCUUGGUUCCUGCAGUGCCCUGCGGUGCGGACAGGACUGCAUCUGAUAGUACACAGACUGAUGCACGUAGCAUUUCCCAAACUGUUUGGACCUCAGGACCUUUU | 0.364
GAUAUUGACAUUUUAUUAAUAUUUUUUAAAUUGUUACGUUUAUAAAUUUGGUACUUAAGGCACAGCCAGUGUGAGGCACUGAACGCGACAUUUAUUACAAUGAGCUGCUG | 0.575
GGCGCCUCGGAGCCAAUGUUGAGCCUUGAAGUUCAAAGGAAGAAGUAGCCAAAUCUUUUUCUAAUAAACUCAAUGUUCAGCUCCUCUGUGUUUAAGUUCUCGUAUCCUUG | 0.208
CAGUCUUACUCCUGAUCUCUUUAGUCCCAAUCCUGCCAAUAAAAAGCAUCGUUUAACUUGUUCUAUGACCCUCUCCUUGCCAUUUAUUCUGGACCUGAUGGGAACCAAAG | 0.678
AAGCCUAGAGGAGUCAGGAGCAGGGACUUUGACUCUUAGGAAGAGCACACAUGAGGGCAAGGCUGCUGGCAGACGUCUCCAUUGUCCUUAUGUUGUCUGUGUUGUAUUUU | 1.02
UUUUACAUGUGAAUGAUUUUCUCAAAGAACAUAGAAAAGUCAAUAAAAUCCUCUUAAUUUCCACAUAUCACGUUUGGAUUUUCUUUUUUAAUUUGUUCUGAGAUUGACAA | 0.443
ACUGUAAUAUUUCAAGUGUAUGCAGUAGAAUGUACUGUAACUGAGCCCUUUCCCACAUGUCUAGGCUCCAAUGUCUCCUGUAGGUCCACCUAACUGUGUGUUUUCAGGGA | 0.357
UAACUCACAUCAAUUUCGUUUAAUACAAACUGAUCCUGAAGAGCUGAGGAACUAUGUAAGUUCAGUGUCCAAGCAUUUGACUGACAUUUGUGCAGAGUUAGGUUCCAUCU | 0.278
GUUUGUUAAGAGCUGUCUUUAGCAUUCUGCUGGAAGAAUUUUGGGAGCAACAGACUGGGACAGAGCCUGCCAGCUGUGGUGGUGAUCUUUGGCAGUGCUAAGGCAAAGGA | 0.938

Series 3
Target: Ras GTPase-activating protein-binding protein 1, full length (G3BP1, Homo sapiens, UniProt Q13283)
Sequence of UniProt Q13283 (whole entry, looked up): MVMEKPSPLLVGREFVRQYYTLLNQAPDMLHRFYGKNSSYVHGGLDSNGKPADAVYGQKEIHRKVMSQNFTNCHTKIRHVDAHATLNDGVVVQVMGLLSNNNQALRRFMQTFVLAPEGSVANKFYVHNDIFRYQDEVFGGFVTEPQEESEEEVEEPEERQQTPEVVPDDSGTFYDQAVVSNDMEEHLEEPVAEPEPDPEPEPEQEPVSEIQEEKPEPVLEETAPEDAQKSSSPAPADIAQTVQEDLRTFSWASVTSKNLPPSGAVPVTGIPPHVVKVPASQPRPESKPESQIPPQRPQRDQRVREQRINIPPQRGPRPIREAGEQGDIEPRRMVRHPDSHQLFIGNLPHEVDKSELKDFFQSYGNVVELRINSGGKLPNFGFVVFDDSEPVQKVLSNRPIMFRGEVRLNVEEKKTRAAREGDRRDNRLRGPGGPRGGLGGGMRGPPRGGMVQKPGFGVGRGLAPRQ
Technique: RNA Bind-n-Seq
Molecule type: RNA
Medium: in vitro
Tested at: 200 nM
Setting: whole 134-nt RNA, ends assumed
Together with: 150 mM KCl
Relative to: input library
Direction: higher = stronger binding
All sequences stand within: GGGAGUUCUACAGUCCGACGAUC … UGGAAUUCUCGGGUGUCAAGG
Oligonucleotide | log2 enrichment
UGCCUGGCCCAGUGCUGGGUUUGCCUUGUUGACGAUGCGCUUGGAUUGUUAAGGACACCGAUGUUCAGAACCCGGGAAGAGUCAUCUUAA | -1.79
CCUCAAGUCCUGUGCUACACAUCGUAUGUACCGAAUCGGCGGGCGGGGCGGGAAAGUAUUAUGUUACGCCGUUCGGAUCUGCACUUCCAG | 0.608
GUCCUGUGCUACACAUCGUAUGUACCGAAUCGGGAGGGUUUUUUUGGGAAAAAAAGGGAAAGUAUUAUGUUACGCCGUUCGGAUCUGCAC | -0.418
UCAUGGCUAUCAUUAGCCACAGGUACUGCUGAUUAUAAGGCCAGUAAAAUUUUAGUACCUGGAGGUUUGACUCUAAUUUUUGCACUGAUG | -1.73
AGUCCUGUGCUACACAUCGUAUGUACCGAAUCGGGAAAGGGAAAAAGGGAAAAAGGGAAAGUAUUAUGUUACGCCGUUCGGAUCUGCACU | -0.303

Series 4
Target: Hepatocyte nuclear factor 3-alpha (Foxa1, Mus musculus, UniProt P35582, residues 1-468, full length assumed)
Technique: EMSA with sequencing
Molecule type: double-stranded DNA, one strand shown
Medium: in vitro
Tested at: 10 and 20 nM
Setting: whole designed probe, mean of two concentrations, ends assumed
Relative to: negative control set to 0
Direction: higher = stronger binding
All sequences stand within: GTGAGCGGTGCCCATTGATGGGGAAC … TTTCACTGGGATCGTGGGGAC
Construct (chain): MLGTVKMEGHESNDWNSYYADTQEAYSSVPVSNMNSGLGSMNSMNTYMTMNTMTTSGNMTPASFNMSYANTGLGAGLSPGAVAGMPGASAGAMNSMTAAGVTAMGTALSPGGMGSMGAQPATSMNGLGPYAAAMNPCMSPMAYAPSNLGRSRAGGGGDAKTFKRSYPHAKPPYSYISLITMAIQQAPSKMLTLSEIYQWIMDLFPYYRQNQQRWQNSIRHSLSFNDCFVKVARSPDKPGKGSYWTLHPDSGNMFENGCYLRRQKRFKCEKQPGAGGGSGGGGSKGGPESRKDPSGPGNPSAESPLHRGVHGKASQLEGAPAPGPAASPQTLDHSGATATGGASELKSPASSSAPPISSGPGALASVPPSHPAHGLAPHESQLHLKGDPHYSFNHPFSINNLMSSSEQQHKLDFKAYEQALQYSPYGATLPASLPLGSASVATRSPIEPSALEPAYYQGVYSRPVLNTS
Oligonucleotide | normalised bound fraction
GGTTAGAGGAAGTAAGGTAATGCAAGTGTTAAATTATGTGTGAAAGATGGGATGCCTGGAAGAAATTCATATCACAAATATTACAGAAAGATAAGTAAACAGGGATTTAATATTCATGGATTTTTCTCCTATTTTATTTAAAATGTCAGACCTGTCTTAATGAGGTTCTACTGACATTTATTCTTTTTTAATT | 0.281 ratio
GCTCAGCTTCCTCATCTAAGGAGGCAATAAAACCTTCCACTATGTGGTCAGGATTACAAGATTTAAAGTATATGAAATCTGTAAGGCCCTTATGCAATTTAAGATGTTATTATCCTACTTTGCAGATGAATGAAAAATATTACTGAATCAGAGAAACTAAGGTTCAGAGACATAAAGTCACTTGCTGACGTTT | -0.0712 ratio
CAAGTTTGTGGTCCAGGAGCAACAGGTTATGCCATACAGCCTAGGTGTGTAGTAGGCTACACACCGTCTATGTTTGTGTTGTACACTCTACAATGTTTGCACAATGATGAAATCTTCTCAGAACCCATGACTCATATACCCCTGTTGTTAAGCGATACATGACTGTACTTTTTTTAAAAAGTCCAAGGATATA | 0.386 ratio
AGCATTATCAGCAGGGGCCAGGCTACTTGGCCCACATCAGATTACCTATGTCCCAGGCCAGCCTGCACTCATTAGATCAGTGCAGCCATAATTAGATTGCACAGGAGGTGGCAGAGTGTGTACTTGTGTACTTGACCTCAGACATCAAATACTTAAGTTTTGAAAGTACTGAACTGTGATGTCAGCTTGGTTT | 0.00892 ratio
CATTTTTCTATGAAGTTATAGTCACTTTCACATTTACTGCAAGATGTTTTTCGGATCTCTCCACTGCCGCCTTGTGGCTTTAGAACACAAATCTGTTTACTTTGTTTTGTGACATATTTGAATAAAACCATGTATCCTGTTTAGGGCTGGCAATGTGGTAGTGGGAGGGTTGGAAATTGGATACAAAAATTGA | 0.336 ratio
GGAAGTCTGCAATGCTTTGAACAGCAGGGTGTGGGAGGAAGTGTTGGCCCTACTCACCCTGCCTGACCTCCCTGGGCTGTGACGTCAGAGCTCAGATTACATAGCTGAGGGACTGGGAATGCTGGAGTGGAGGAAGGAGGTGATGAATGATTCAGGAGGACACACAACATCCCTGCTTTTCTTTCCTGCTGGC | -0.0478 ratio
CTGCAACCATATTTTGAAGGCTATGAGCCTTTCCTTTTTCCTCAACACTGTATCCCCTTCCTGGCAATGTGCCTGGCACAGAAGAAATGCTCAGTAAATATTGGCTGAACAAACAGATGAATGTCTATAGCCCACTTTGCTGGGAGAAGTGGAAGGAGGAGAGATTCCATTGCATATTAGAATTCTGTGTCTT | 0.351 ratio
TTCCAAATACTCTTTTGAATTGAAAATGGTGAGAAGCGTAAATTATATGACACTGGAAACGTCTTTCCTATTTCATTTACGATCAAGAACTACTGTTTGCATTTGTATTATGTAGCTACTGTAGAAATTGACCAAATGTTGACAGACAAAAGGCACATGCACCCTGACAAGAGCCAAAACAAACAGGAAGGAA | 0.378 ratio
